Results collected from several papers.
Each line is one published result; not all experiments were run side by side. “And” joins repeats or separate records; there may be more than shown. ± gives the spread as reported.
APP: Amyloid-beta precursor protein (APP, Homo sapiens, UniProt P05067)
UniProt P05067, sequence (whole entry, looked up): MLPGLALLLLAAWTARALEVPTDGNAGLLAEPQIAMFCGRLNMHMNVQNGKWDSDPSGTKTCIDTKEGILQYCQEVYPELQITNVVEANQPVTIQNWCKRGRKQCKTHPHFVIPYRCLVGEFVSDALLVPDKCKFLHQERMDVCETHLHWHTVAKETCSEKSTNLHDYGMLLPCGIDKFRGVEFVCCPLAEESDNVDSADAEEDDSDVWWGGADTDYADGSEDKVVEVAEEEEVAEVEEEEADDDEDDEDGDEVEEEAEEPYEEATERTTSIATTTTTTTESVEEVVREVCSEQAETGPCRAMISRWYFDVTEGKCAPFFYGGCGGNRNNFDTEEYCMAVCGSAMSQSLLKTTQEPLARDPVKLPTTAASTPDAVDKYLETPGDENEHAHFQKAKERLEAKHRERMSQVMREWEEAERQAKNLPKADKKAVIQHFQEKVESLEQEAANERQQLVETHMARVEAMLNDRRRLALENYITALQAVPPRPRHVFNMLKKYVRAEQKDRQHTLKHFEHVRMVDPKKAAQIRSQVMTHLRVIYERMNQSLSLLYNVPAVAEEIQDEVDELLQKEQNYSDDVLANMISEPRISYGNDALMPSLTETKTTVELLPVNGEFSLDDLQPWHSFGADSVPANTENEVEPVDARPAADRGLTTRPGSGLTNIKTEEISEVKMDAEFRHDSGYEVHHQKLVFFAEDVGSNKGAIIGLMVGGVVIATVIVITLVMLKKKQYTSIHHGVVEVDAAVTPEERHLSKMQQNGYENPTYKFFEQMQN
APP amyloid-beta aggregates: Amyloid-beta precursor protein, amyloid-beta aggregates (APP, Homo sapiens, UniProt P05067)
APP Aβ42 aggregates: Amyloid-beta precursor protein, Aβ42 aggregates (APP, Homo sapiens, UniProt P05067)

| SMILES | target | test | system | conditions | how to read | endpoint | value |
| --- | --- | --- | --- | --- | --- | --- | --- |
| CC[C@H](C)[C@H](NC(=O)[C@H](Cc1ccccc1)NC(=O)[C@@H](N)C(C)C)C(=O)N[C@@H](C)C(N)=O | APP | amyloid aggregation, inhibitor, fluorescence |  | 4 µM, 24 h |  | inhibition | 61.7% |
| CC(C)C[C@@H]1NC(=O)CN(C)C(=O)CCCCC(=O)NCCCC[C@@H](C(=O)N[C@@H](CCCNC(=N)N)C(N)=O)NC(=O)[C@H](Cc2ccccc2)NC(=O)[C@H](Cc2ccccc2)NC(=O)[C@H](C(C)C)NC1=O | Amyloid-beta precursor protein, Aβ40 fibrils (APP, Homo sapiens, UniProt P05067) | fibril disruption |  | 2-fold molar excess, pH 7.4, 37 °C, with: preformed Aβ1-40 fibrils |  | ThT fluorescence | decreased |
| [123I]c1ccc2nc(-c3ccc(-n4ccnn4)nc3)cn2c1 | Amyloid-beta precursor protein, amyloid-beta (APP, Homo sapiens, UniProt P05067) | SPECT | Alzheimer's disease patients, cortex over cerebellum | from 150 min post-injection | baseline: healthy controls | SUVR increase | 58% and ~60% |
| CC[C@H](C)[C@H](NC(=O)[C@@H](NC(=O)[C@@H](NC(=O)[C@@H](N)C(C)C)C(C)C)[C@@H](C)CC)C(N)=O | APP | amyloid aggregation, inhibitor, fluorescence |  | 2 µM, 24 h |  | inhibition | 0% |
| CN(C)c1ccc(C=C(C#N)C(=O)OCC(O)CO)cc1 (stereo not shown) | APP amyloid-beta aggregates | IgG-amyloid beta binding, inhibitor, ELISA |  | with: aggregated amyloid beta |  | maximum inhibition | 79% |
| NC(=O)CN(Cc1ccccc1)C(=O)CN(CCOc1cc(-c2ccccn2)nc(-c2ccccn2)c1)C(=O)CNCc1ccccn1 | Amyloid-beta precursor protein, Cu/Zn-bound amyloid-beta 1-40 (APP, Homo sapiens, UniProt P05067) | ROS production, inhibitor |  | 20 µM, 30 min, pH 7.4, with: Aβ1-16 10 µM, Cu2+ 9 µM, Zn2+ 10 µM |  | ascorbate consumption | 94.1% |
| COCCOCCOCCOC(=O)/C(C#N)=C/c1ccc2cc(N3CCOCC3)ccc2c1 | APP Aβ42 aggregates | fluorescence |  | free probe, 5% DMSO in water |  | emission maximum | 530 nm |
| COc1cc(OC)c2c(O)c3c(=O)cc(C)oc3c(-c3c(OC)cc4cc5c(c(O)c4c3OC)C(=O)CC(C)(O)O5)c2c1 (stereo not shown) | APP | thioflavin-T fluorescence |  | 12.5 µM | baseline: untreated | Aβ aggregation | 65.1 ± 9.5% |
| CC[C@H](C)[C@H](NC(=O)[C@@H](NC(=O)[C@@H](N)C(C)C)C(C)C)C(=O)NCC(N)=O | APP | amyloid aggregation, inhibitor, fluorescence |  | 4 µM, 24 h |  | inhibition | 31.8% |
| CCCCN(CCCC)c1ccc(C=C(C#N)C(=O)OCCOCCOCCOC)cc1 | APP amyloid-beta aggregates | IgG-amyloid beta binding, inhibitor, ELISA |  | with: aggregated amyloid beta |  | maximum inhibition | 91% |
| CC(C)C[C@@H]1NC(=O)CN(C)C(=O)CCCC(=O)NCCCC[C@@H](C(=O)N[C@@H](CCCNC(=N)N)C(N)=O)NC(=O)[C@H](Cc2ccccc2)NC(=O)[C@H](Cc2ccccc2)NC(=O)c2ccccc2NC1=O | Amyloid-beta precursor protein, Aβ40 (APP, Homo sapiens, UniProt P05067) | aggregation, ThT fluorescence |  | 5-fold molar excess, pH 7.4, 37 °C, with: Aβ 40 µM |  | inhibition | ~95% |
| N#C/C(=C\c1ccc2cc(N3CCCCC3)ccc2c1)C(=O)OCC(O)CO (stereo not shown) | APP Aβ42 aggregates | fluorescence |  | with: aggregated Abeta42 5 µM |  | emission maximum | 535 nm |
| COCCOCCOCCOC(=O)C(C#N)=Cc1ccc2cc(N3CCCCC3)ccc2c1 | APP amyloid-beta aggregates | IgG-amyloid beta binding, inhibitor, ELISA |  | with: aggregated amyloid beta |  | maximum inhibition | 58% |

Some of these lines once more:
| SMILES | target | test | system | conditions | how to read | endpoint | value |
| --- | --- | --- | --- | --- | --- | --- | --- |
| [123I]c1ccc2nc(-c3ccc(-n4ccnn4)nc3)cn2c1 | Amyloid-beta precursor protein, amyloid-beta (APP, Homo sapiens, UniProt P05067) | SPECT | Alzheimer's disease patients, cortex over cerebellum | from 150 min post-injection | baseline: healthy controls | SUVR increase | 58% and ~60% |
